Published values gathered from unrelated publications.
Each line is one published result; not all experiments were run side by side. ± gives the spread as reported. Converted amounts (≈) assume the structure as drawn.
Organism: Mycobacterium tuberculosis

Structure (SMILES) = CC(C)(O)c1ccc(OCCc2cccc(F)c2)c(C(N)=O)c1; test = growth; system = H37Rv-LP; setting = 120 h; measurement = IC90; result = 6700 ± 930 nM
Structure (SMILES) = O=c1c2cc(Cl)ccc2[nH]c(=S)n1Cc1ccc(-c2nnn[nH]2)nc1; system = PptT conditional knockdown; measurement = MIC90; result = 3.6 µM (≈ 1.34 µg/mL)
Structure (SMILES) = Cc1c(-c2ccc(N3CCCCC3)cc2)[nH]c2ccccc2c1=O; test = time-kill; system = H37Rv; setting = concentration not given, 7 days; measurement = kill rate; result = 0.05 h⁻¹
Structure (SMILES) = COc1ccc(-c2cc(C(F)(F)F)c3cc(C(=O)NC(C)c4ccccc4)sc3n2)cc1 (stereo not drawn); test = growth inhibition; system = H37Rv LepB under-expressing; measurement = IC50; result = 1500 ± 700 nM
Structure (SMILES) = O=c1c2c(Cl)cccc2[nH]c(=S)n1Cc1cccnc1; system = PptT conditional knockdown; measurement = MIC90; result = > 100 µM
Structure (SMILES) = Cc1cccc(NC(=O)c2sc3nc(-c4cccs4)cc(C(F)(F)F)c3c2N)c1C; test = growth inhibition; system = H37Rv LepB under-expressing; measurement = IC50; result = > 100000 nM
Structure (SMILES) = CCCCCCC#Cc1cncc(-c2nnc(SCc3cc([N+](=O)[O-])cc([N+](=O)[O-])c3)n2C)c1; system = macrophages, murine, bone marrow-derived, Erdman; setting = concentration not given; measurement = intracellular bacterial survival; result = decreased
Structure (SMILES) = CNC(=O)c1cc(-c2ccoc2)ccc1OCCc1cccc(F)c1; test = growth; system = H37Rv-LP; setting = 120 h; measurement = IC90; result = 850 ± 700 nM
Structure (SMILES) = Nc1c(C(=O)Nc2cccnc2)sc2nc(-c3ccccc3)cc(C(F)(F)F)c12; test = growth inhibition; system = H37Rv LepB under-expressing; measurement = IC50; result = > 100000 nM
Structure (SMILES) = NC(=O)c1cc(-c2ccsc2)ccc1OCCc1cccc(F)c1; test = growth; system = H37Rv-LP; setting = 120 h; measurement = IC90; result = 350 ± 190 nM
Structure (SMILES) = O=c1c2cc(Cl)ccc2[nH]c(=S)n1Cc1ccccn1; system = PptT conditional knockdown; measurement = MIC90; result = > 100 µM
Structure (SMILES) = COc1ccc(-c2cc(C(F)(F)F)c3c(N)c(C(=O)Nc4ccc(C)c(C)c4)sc3n2)cc1; system = H37Rv wild type; scale = reference: HepG2 IC50 over M. tuberculosis IC90; measurement = selectivity index; result = < 1
Structure (SMILES) = O=c1c2cc(Cl)ccc2[nH]c(=S)n1Cc1ccc(-n2cccn2)nc1; system = PptT conditional knockdown; measurement = MIC90; result = 1.08 µM (≈ 0.399 µg/mL)
Structure (SMILES) = Cc1ccc(OCCc2cc(F)cc(F)c2)c(C(=O)NCC2CC2)c1; system = H37Rv-LP; scale = reference: HepG2 CC50 over Mtb IC90; measurement = selectivity index; result = 2
Structure (SMILES) = Nc1c(C(=O)NCc2ccc(F)cc2)sc2nc(-c3ccccc3)ccc12; test = growth inhibition; system = H37Rv LepB under-expressing; measurement = IC50; result = > 100000 nM

Excerpt of the above:
Structure (SMILES) = O=c1c2cc(Cl)ccc2[nH]c(=S)n1Cc1ccc(-c2nnn[nH]2)nc1; system = PptT conditional knockdown; measurement = MIC90; result = 3.6 µM (≈ 1.34 µg/mL)
Structure (SMILES) = Cc1c(-c2ccc(N3CCCCC3)cc2)[nH]c2ccccc2c1=O; test = time-kill; system = H37Rv; setting = concentration not given, 7 days; measurement = kill rate; result = 0.05 h⁻¹
